Published values collected from several papers.
Each numbered part is a random draw from the data of one study; scales do not carry over between parts. Positions count from the first letter of the parent shown.
Sequence of UniProt P43250 (whole entry, looked up): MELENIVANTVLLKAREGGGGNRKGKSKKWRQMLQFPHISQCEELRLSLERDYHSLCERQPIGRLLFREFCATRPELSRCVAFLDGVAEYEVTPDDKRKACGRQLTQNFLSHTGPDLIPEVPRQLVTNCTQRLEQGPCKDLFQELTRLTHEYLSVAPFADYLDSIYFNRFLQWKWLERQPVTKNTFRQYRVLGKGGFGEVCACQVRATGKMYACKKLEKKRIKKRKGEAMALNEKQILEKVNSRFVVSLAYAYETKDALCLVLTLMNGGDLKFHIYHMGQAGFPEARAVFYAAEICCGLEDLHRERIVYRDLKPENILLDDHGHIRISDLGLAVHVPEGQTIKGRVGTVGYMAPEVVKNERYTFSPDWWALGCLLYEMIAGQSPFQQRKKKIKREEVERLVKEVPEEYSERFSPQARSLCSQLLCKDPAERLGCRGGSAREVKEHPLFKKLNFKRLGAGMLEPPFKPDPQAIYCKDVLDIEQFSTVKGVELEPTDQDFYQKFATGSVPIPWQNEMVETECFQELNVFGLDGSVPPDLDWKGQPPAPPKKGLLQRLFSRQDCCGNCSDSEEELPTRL

Block 1
Target: NFE2L3, bZIP domain (human)
Technique: DHFR protein complementation
Sample: yeast
Notes: single substitutions, most at no-binding floor
Baseline: wild-type JUN-FOS pair
Reading: higher = stronger binding
Measurement: binding fitness
Parent: JUN, bZIP domain (human); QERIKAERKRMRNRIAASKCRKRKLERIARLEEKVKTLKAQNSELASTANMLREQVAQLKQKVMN; partner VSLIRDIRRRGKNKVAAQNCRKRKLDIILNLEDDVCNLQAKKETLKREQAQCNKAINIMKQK
A46R: -1.31 natural log
L38W: -1.5 natural log
E32K: -1.58 natural log
L52R: -1.5 natural log
S43E: -1.15 natural log
N42L: -1.48 natural log
S47G: -1.29 natural log
I28S: -1.49 natural log

Block 2
Target: PABPC1L2, full length, GST fusion (mouse, UniProt A0ABA7IW68)
Technique: RNAcompete
Molecule type: RNA
Sample: in vitro
Concentration: 20 nM
Notes: 7-mer, probes averaged, single round
Baseline: mean of 7-mers
Reading: higher = stronger binding
Measurement: 7-mer Z-score
Residues (chain): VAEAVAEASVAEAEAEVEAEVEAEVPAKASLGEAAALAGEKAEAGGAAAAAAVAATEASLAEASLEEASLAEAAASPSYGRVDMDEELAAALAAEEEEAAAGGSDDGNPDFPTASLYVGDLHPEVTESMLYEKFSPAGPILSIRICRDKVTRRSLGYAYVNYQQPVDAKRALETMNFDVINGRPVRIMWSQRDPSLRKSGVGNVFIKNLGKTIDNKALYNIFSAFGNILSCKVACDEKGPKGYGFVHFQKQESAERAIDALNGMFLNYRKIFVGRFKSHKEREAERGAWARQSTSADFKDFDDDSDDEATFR
AGACGCC: -0.32
CGUGUAC: -0.226
CCAGUAG: -0.228
CGUCUUG: -0.481
CCAGGAG: -0.0518
CACGACA: -0.0192
AACUACU: 0.0315
CUGGGCA: 0.254

Block 3
Target: TAR DNA-binding protein 43, full length, His tag (TARDBP, Homo sapiens, UniProt Q13148, residues 1-414)
Technique: RNA Bind-n-Seq
Molecule type: RNA
Sample: in vitro
Concentration: 20 nM
Notes: 6-mer, flanks averaged, single round
Added: 150 mM LiCl
Baseline: input library
Reading: higher = stronger binding
Measurement: 6-mer enrichment (R)
GGCCAG: 1.02
AAUGUG: 1.32
CCAGCG: 0.966
CCUAGG: 0.878
CACUCA: 0.858
GGUUUU: 1.26
AUACUG: 0.865
GGUAAU: 0.99

Other studies, line by line
Cc1ccc(NC2=CC(=O)c3sc(C)nc3C2=O)cc1 — remaining activity (G protein-coupled receptor kinase 6 (GRK6, Homo sapiens, UniProt P43250); enzyme activity, inhibitor; 0.5 µM; baseline: control): 96.8%

Excerpt of the above (block 3):
GGUUUU: 1.26
AUACUG: 0.865
